Experimental data gathered from unrelated publications.
Lines come from different studies, so protocols differ. ± marks the error that the study gave.

Compound | test | test system | setting | how to read | endpoint | value
CCC[C@@](N)(CO)CCc1ccc(OCCCCCC(C)C)cc1 |  | dog, male hounds, plasma | oral capsule, 5 mg/kg, geometric mean |  | AUC(0-inf) | 7.43 µM·h
COc1ncccc1-c1cnn2ccc(N3CCN(C(=O)OC(C)C)CC3)nc12 |  | mouse, SNL model, plasma | oral, 60 mg/kg, 120 min |  | drug concentration | 13 µM
COc1cc2c(Oc3ccc4[nH]c(C)cc4c3F)ccnc2cc1OCC1(N)CC1 |  | paediatric recurrent refractory sarcoma | 8 mg/kg |  | grade 1 or 2 Hyperuricemia | 6.7%
COc1ccc(-c2c(-c3ccc(C#N)c(F)c3)nc(N3CCC(N)CC3)n(C)c2=O)cc1F | refers to: Leukopenia | neuroendocrine neoplasm patients | oral, 60 mg, grade 3 to 4, dose expansion |  | treatment-related adverse event incidence | 0%
C[C@@H](NC(=O)N1C(=O)[C@H](Cc2ccnc(N)c2)[C@H]1C(=O)O)C1CCCCC1 |  | healthy adult Chinese volunteers | continuous intravenous infusion, 1.5 mg/kg/h, 5-day infusion, CTCAE 5.0 grading |  | incidence of hypokalemia | 0%
C=C(C)[C@@H]1CCC(C)=C[C@H]1c1c(O)cc(CCC)cc1O | LC-MS/MS | Scn1a+/− mice, both sexes, plasma | intraperitoneal, 30 mg/kg, after hyperthermia protocol |  | plasma concentration | 3100 ± 300 ng/mL
CC(=O)NCC(=O)NCC(=O)N[C@H](C(=O)N[C@@H](Cc1ccc(O)cc1)C(=O)N[C@@H](CO)C(=O)N[C@H]1CSSC[C@@H](C(=O)N[C@@H](CCCNC(=N)N)C(=O)N2CCC[C@H]2C(=O)N[C@@H](CCC(N)=O)C(=O)N[C@@H](CCCNC(=N)N)C(=O)NCC(=O)NCCC(=O)N[C@@H](CCCCNC(=O)CN(CC(=O)NCCCC[C@H](NC(=O)CCNC(=O)CNC(=O)[C@H](CCCNC(=N)N)NC(=O)[C@H](CCC(N)=O)NC(=O)[C@@H]2CCCN2C(=O)[C@H](CCCNC(=N)N)NC(=O)[C@@H]2CSSC[C@H](NC(=O)[C@H](CO)NC(=O)[C@H](Cc3ccc(O)cc3)NC(=O)[C@@H](NC(=O)CNC(=O)CNC(C)=O)[C@@H](C)O)C(=O)N[C@@H](Cc3c[nH]cn3)C(=O)N[C@@H](Cc3ccccc3)C(=O)NCC(=O)N[C@@H](C)C(=O)N[C@@H](CC(C)C)C(=O)N[C@@H]([C@@H](C)O)C(=O)N[C@@H](Cc3c[nH]c4ccccc34)C(=O)N[C@@H](C(C)C)C(=O)N2)C(N)=O)C(=O)CCN)C(N)=O)NC(=O)[C@H](C(C)C)NC(=O)[C@H](Cc2c[nH]c3ccccc23)NC(=O)[C@H]([C@@H](C)O)NC(=O)[C@H](CC(C)C)NC(=O)[C@H](C)NC(=O)CNC(=O)[C@H](Cc2ccccc2)NC(=O)[C@H](Cc2c[nH]cn2)NC1=O)[C@@H](C)O | MSD immunoassay | BALB/c mice, healthy female, serum | subcutaneous, 0.08 mg/kg, 192 h, LLOQ 2.0 ng/mL |  | serum concentration | not detected
CO[C@H]1C[C@@H]2CC[C@@H](C)[C@@](O)(O2)C(=O)C(=O)N2CCCC[C@H]2C(=O)O[C@H]([C@H](C)C[C@@H]2CC[C@@H](OC(=O)NCCOCCOCCOCCOCCOCCOCCOCCOCCC(=O)N3CCc4cc(Cn5nc(-c6ccc7oc(N)nc7c6)c6c(N)ncnc65)ccc4C3)[C@H](OC)C2)C[C@@H](O)[C@H](C)/C=C(\C)[C@@H](O)[C@@H](OC)C(=O)[C@H](C)C[C@H](C)/C=C/C=C/C=C/1C |  | patients with advanced solid tumours | intravenous, dose not given, any grade |  | Neutropenia AE leading to dose reduction | 1.8%
CCN1[C@@H](C(=O)NC23CCC(C(=O)O)(CC2)CC3)[C@H](c2cccc(Cl)c2F)[C@]2(C(=O)Nc3cc(Cl)ccc32)C12CCCCC2 |  | patients with advanced solid tumours | oral, dose not given, all doses |  | Leukopenia incidence | 57.1%
Nc1nc(=O)n([C@H]2C[C@H](O)[C@@H](CO)O2)cc1F |  | advanced solid tumour patients | with: tetrahydrouridine |  | MTD | 134 mg/m²/day
C[C@]1(O)C[C@@](N)(c2ccc(-c3nc4n(c3-c3ccccc3)COc3ccncc3-4)cc2)C1 |  | human, advanced or metastatic solid tumours | 28 mg intermittent, phase I dose escalation |  | patients with Stomatitis TEAE | 100%
CN1CC[C@@H](c2c(O)cc(O)c3c(=O)cc(-c4ccc(C(F)(F)F)cc4Cl)oc23)[C@@H]1CO | refers to: Vomiting | B-cell malignancies | oral, 100 mg, intermittent dosing |  | patients with adverse event | 0%
CC(C)CC(=O)OC[C@H]1O[C@@](C#N)(c2ccc3c(N)ncnn23)[C@H](O)[C@@H]1O | plasma protein binding | dog plasma | 90 µM, time not given |  | recovery | 101%
COc1cc2nccc(Oc3ccc(NC(=O)c4cc5c(n(-c6ccccc6)c4=O)CCCC5=O)nc3)c2cc1OC |  | patients with relapsed/refractory AML | oral, 3 mg once daily |  | TEAEs leading to death | 10%
CCc1ccc(CC/C=C/c2ccc3c(c2)C(=O)CC3)cc1 |  | Sprague-Dawley rat, female | oral, 30 mg/kg/day, 14 days |  | Basophil percentage | 0.27%
Oc1c(Cl)cc2c(c1Cl)Oc1cc(Cl)c(Cl)cc1O2 | ultrafiltration | cow milk whey | 500 nM nominal in whole milk |  | dose fraction in permeate | 18.3%
O=C(Nc1ccccc1)C1CCN(C(=O)Oc2cccnc2)CC1 | psychotropic effects VAS | healthy women | 60 mg | baseline: pre-dose baseline, direction not given | change in Thoughts score | 24
C[C@]1(CO)Cc2ncn(-c3ccc(C#N)c(Cl)c3)c2C(=O)O1 |  | healthy European subjects | dose not given, single dose, all doses |  | subjects with TEAE | 27.1%
Clc1cc2c(cc1Cl)Oc1cc(Cl)c(Cl)cc1O2 | RNA-Seq, refers to: Cyp1a2 | Sprague-Dawley rat, female, liver | 10 µg/kg | baseline: vehicle | mRNA fold change | 27.2 fold
CC(=O)c1c(C)c2cnc(Nc3ccc(C4CCN(CCS(C)(=O)=O)CC4)cn3)nc2n(C2CCCC2)c1=O |  | HR+/HER2- advanced breast cancer patients | oral, dose not given, grade 3/4,, total |  | patients with Hypertriglyceridemia | 2.5%
CCN1CCN(Cc2ccc(Nc3ncc(F)c(-c4cc(F)c5nc6n(c5c4)[C@H](C)CCC6)n3)nc2)CC1 |  | advanced solid tumour patients | dose not given, Phase Ia monotherapy |  | neutropenia incidence, grade ≥3 | 8.3%
O=C1NC(=O)C(c2ccccc2)(c2ccccc2)N1 | PAMPA |  | 200 µM, 5 h, pH 7.4 |  | membrane retention | 17.2%
COc1ccc([C@@H](O)c2cc(-c3ncnc4cc(N5CCOCC5)ccc34)c(F)cc2Cl)nn1 |  | patients, advanced solid tumours | oral, 250 mg twice daily, treatment-emergent, with: avelumab |  | metabolism, nutrition disorders incidence | 3%
CN1CCN(S(=O)(=O)c2cc([N+](=O)[O-])ccc2N(CCOS(C)(=O)=O)CCOS(C)(=O)=O)CC1 |  | naive NSG mice, plasma | intraperitoneal, 10 mg/kg |  | apparent volume Vz/F | 1.13 (mg/kg)/(µM)
N#C[C@@]1(n2ccc(N)nc2=O)O[C@H](CO)[C@@H](O)[C@H]1O |  | CD-1 mouse, plasma | oral, 30 mg/kg |  | MRT | 2.4 h
CN1C(=O)[C@@H](NC(=O)c2nnc(Cc3ccccc3)[nH]2)COc2cccnc21 | phase I single ascending dose | human, male and female | oral, 200 mg, fasted |  | participants with TEAE leading to death | 0%

Some of these lines once more:
Compound | test | test system | setting | how to read | endpoint | value
CN1CC[C@@H](c2c(O)cc(O)c3c(=O)cc(-c4ccc(C(F)(F)F)cc4Cl)oc23)[C@@H]1CO | refers to: Vomiting | B-cell malignancies | oral, 100 mg, intermittent dosing |  | patients with adverse event | 0%
C[C@]1(CO)Cc2ncn(-c3ccc(C#N)c(Cl)c3)c2C(=O)O1 |  | healthy European subjects | dose not given, single dose, all doses |  | subjects with TEAE | 27.1%
C[C@]1(O)C[C@@](N)(c2ccc(-c3nc4n(c3-c3ccccc3)COc3ccncc3-4)cc2)C1 |  | human, advanced or metastatic solid tumours | 28 mg intermittent, phase I dose escalation |  | patients with Stomatitis TEAE | 100%
CO[C@H]1C[C@@H]2CC[C@@H](C)[C@@](O)(O2)C(=O)C(=O)N2CCCC[C@H]2C(=O)O[C@H]([C@H](C)C[C@@H]2CC[C@@H](OC(=O)NCCOCCOCCOCCOCCOCCOCCOCCOCCC(=O)N3CCc4cc(Cn5nc(-c6ccc7oc(N)nc7c6)c6c(N)ncnc65)ccc4C3)[C@H](OC)C2)C[C@@H](O)[C@H](C)/C=C(\C)[C@@H](O)[C@@H](OC)C(=O)[C@H](C)C[C@H](C)/C=C/C=C/C=C/1C |  | patients with advanced solid tumours | intravenous, dose not given, any grade |  | Neutropenia AE leading to dose reduction | 1.8%
